# Measurements collected from several papers.
# Protocols differ between the studies behind these lines. ± marks the error that the study gave.
SMILES,cell line,test,system,conditions,scale,endpoint,result
O=c1[nH]c2ccccc2nc1/C=C/C=C/c1ccccc1,HL7702,"cell viability, MTT",,72 h,,IC50,> 100 µM
NC(COc1cc(C(F)(F)F)cc(C(F)(F)F)c1)c1ccccc1 (stereo not drawn),normal iPSC cardiomyocytes,kinetic imaging cytometry,,"5 min, pH 7.4",,beating cessation concentration,133 µM
C=C(C)[C@@H]1CC[C@]2(C(N)=O)CC[C@]3(C)[C@H](CC[C@@H]4[C@@]5(C)CCCNC(C)(C)[C@@H]5CC[C@]43C)[C@@H]12,C-33 A,"cell viability, CellTiter-Glo",,,,CC50,5.16 µM
CC(=O)O[C@@H]1[C@@H](OC(C)=O)[C@H](Sc2sc(C(=O)c3ccc(Cl)cc3)c(N)c2-c2nc3ccccc3s2)OC[C@H]1OC(C)=O,FRhK-4,,,72 h,,non-toxic concentration,80 µg/mL
CC(=O)O[C@H]1CC[C@]2(C)[C@H]3CC=C4[C@@H]5CC(C)(C)CC[C@]5(C(=O)O)CC[C@@]4(C)[C@]3(C)CC[C@H]2C1(C)C,HEK293-A,"cell growth or viability, SRB",,,,IC50,19.5 µM
CCCCCCCCCc1nc2cc(Cl)ccc2c(=O)n1CCCN,Jurkat,,medium with 10% FBS,"above 6.3 µM, 24 h",,LDH release,~30%
CCCCCCCCCCCC(=O)NCCC(=O)N[C@H](CCCNC(=N)N)C(=O)N[C@H](CCCNC(=N)N)C(=O)N[C@H](CCCNC(=N)N)C(=O)N[C@H](CCCNC(=N)N)C(=O)N[C@H](CCCNC(=N)N)C(=O)N[C@H](CCCNC(=N)N)C(=O)N[C@H](CCCNC(=N)N)C(=O)N[C@H](CCCNC(=N)N)C(=O)N[C@H](CCCNC(=N)N)C(=O)N[C@@H](CCCCNC(=S)Nc1ccc2c(c1)C(=O)OC21c2ccc(O)cc2Oc2cc(O)ccc21)C(N)=O,Jurkat,flow cytometry,,"10 µM, 6 h, loaded 10 min at 37 °C, then washed","reference: 0 h, higher = more retained",retained fluorescence,~50%
CC(=O)OC[C@H]1O[C@@H](Sc2sc(C(=O)c3ccc(Br)cc3)c(N)c2-c2nc3ccccc3s2)[C@H](OC(C)=O)[C@@H](OC(C)=O)[C@@H]1OC(C)=O,FRhK-4,,,72 h,,non-toxic concentration,100 µg/mL
Cc1ccc(C(C)C)cc1.[Cl-].[Cl][Ru+].[Ru+].c1ccc(-c2cn(CCCCOc3ccccc3-c3nc4ccccc4s3)nn2)nc1,MCF7,annexin V/PI flow cytometry,,"8 µM, 24 h",,viable cells,65.5%
O=c1c(-c2nc3ccccc3s2)cc2c(n1NS(=O)(=O)c1ccccc1)CCCCCC2,BGM,trypan blue,,72 h,,maximum non-toxic concentration,140 µg/mL
CC(=O)[O-].Nc1ccc(C([O-])=NN=Cc2ccc(OCC(=O)Nc3ccc(Cl)cc3)cc2)cc1.[Co+2],WISH,"cytotoxicity, MTT",,24 h,,IC50,31 ± 2.9 µM
COc1ccc2c3c(oc2c1CC=C(C)C)-c1cc(CC=C(C)C)c(O)cc1OC3,3T3-L1,MTT,,concentration not given,,viability,76.5 ± 1.1%
COc1cc(O)c(C(=O)/C=C/c2cccc3ccccc23)c(OC)c1,HEK293 empty vector pcDNA3.1,"cell growth, MTT",,"72 h, 10% FBS",,GI50,20.6 µM
CC(=O)O[C@@H]1[C@@H](OC(C)=O)[C@H](Sc2sc(C(=O)c3ccc(C)cc3)c(N)c2-c2nc3ccccc3s2)OC[C@H]1OC(C)=O,BGM,cytotoxicity,,72 h,,maximum non-toxic concentration,80 µg/mL
COc1ccc([C@@H]2CC(=O)c3c(O)cc(O[C@@H]4O[C@H](CO[C@@H]5O[C@@H](C)[C@H](O)[C@@H](O)[C@H]5O)[C@@H](O)[C@H](O)[C@H]4O)cc3O2)cc1O,MRC5,"cell growth or viability, MTS",,"100 µg/mL, 48 h",,viability,62.2%
C[C@H](NC(=O)[C@H](CCCNC(=N)N)N(C)C(=O)[C@@H]1CCCN1C(=O)[C@H](CCCNC(=N)N)NC(=O)CNC(=O)c1ccc2c(c1)C1(OC2=O)c2ccc(O)cc2Oc2cc(O)ccc21)C(=O)N[C@@H](Cc1ccccc1)C(=O)N[C@H](C(=O)N[C@@H](Cc1ccccc1)C(=O)N(C)[C@@H](C)C(N)=O)[C@@H](C)O,LNCaP,single-cell CE-LIF,,"5 min, microinjection",reference: all species,intact parent peptide,15 ± 5%
O=c1c(-c2nc3ccccc3s2)cc2c(n1NS(=O)(=O)c1ccc(Cl)cc1)CCCCCC2,FRhK-4,trypan blue,,72 h,,maximum non-toxic concentration,130 µg/mL
CC(=O)OC[C@H]1O[C@@H](Sc2sc(C(=O)c3ccc(C)cc3)c(N)c2-c2nc3ccccc3s2)[C@H](OC(C)=O)[C@@H](OC(C)=O)[C@H]1OC(C)=O,BGM,cytotoxicity,,72 h,,maximum non-toxic concentration,100 µg/mL
COc1cc(OC)c(OC)cc1/C=C/C(=O)c1ccc2ccccc2c1,HEK293 empty vector pcDNA3.1,"cell growth, MTT",,"72 h, 10% FBS",,GI50,34.9 µM
CCOC(=O)c1cc(-c2nc3ccccc3s2)c(=O)n(NS(=O)(=O)c2ccccc2)c1N,BGM,trypan blue,,72 h,,maximum non-toxic concentration,100 µg/mL
FC(F)(F)c1ccnc(-c2cc(C(F)(F)F)ccn2)c1.FC(F)(F)c1ccnc(-c2cc(C(F)(F)F)ccn2)c1.[Cl-].[Cl-].[Ru+2].c1cnc2c(c1)ccc1cccnc12,SK-MEL-28,resazurin,,"concentration not given, normoxia, visible light",,photocytotoxicity,inactive
Nc1c(C(=O)c2ccc(Br)cc2)sc(S)c1-c1nc2ccccc2s1,BGM,cytotoxicity,,72 h,,maximum non-toxic concentration,100 µg/mL
C=C(CO)[C@@H]1CC[C@]2(C)CC[C@]3(C)[C@H](CC[C@@H]4[C@@]5(C)CCC(=O)C(C)(C)C5CC[C@]43C)C12 (stereo partly drawn),HEK293-A,"cell growth or viability, SRB",,,,IC50,12.5 µM
Cc1ccc(S(=O)(=O)Nn2c3c(cc(-c4nc5ccccc5s4)c2=O)CCCC3)cc1,FRhK-4,trypan blue,,72 h,,maximum non-toxic concentration,130 µg/mL
O=C(Nc1cc(F)c(F)c(F)c1)c1ccc(F)c(S(=O)(=O)N2CCC(NC(=O)C3CN(C(=O)CC45CC6CC(CC(C6)C4)C5)C3)CC2)c1,HepAD38,cytopathic effect,human hepatoma cells,,,maximum non-toxic concentration,15 µmol/L
COc1cc(/C=C/C(=O)c2ccc3c(c2)OCO3)ccc1OCc1ccccc1,HEK293 empty vector pcDNA3.1,"cell growth, MTT",,"72 h, 10% FBS",,GI50,17.5 ± 1.2 µM
COc1c2c(cc3c1[C@@H]1Oc4c(ccc(O)c4CC=C(C)C)[C@@H]1CO3)OC(C)(C)C=C2,3T3-L1,MTT,,concentration not given,,viability,43.1 ± 0.4%
COC(=O)CC[C@@H](NC(=O)[C@@H](Cc1ccc(OP(=O)(O)O)cc1)NC(=O)[C@@H](Cc1ccccc1)NC(=O)[C@@H](Cc1ccccc1)NC(=O)Cc1ccc2ccccc2c1)C(=O)OC,HS5,,,"200 µM, 24 h",,remaining compound,62.2%
CC(=O)OC[C@H]1O[C@@H](Sc2sc(C(=O)c3ccc(Cl)cc3)c(N)c2-c2nc3ccccc3s2)[C@H](OC(C)=O)[C@@H](OC(C)=O)[C@@H]1OC(C)=O,BGM,cytotoxicity,,72 h,,maximum non-toxic concentration,80 µg/mL
C[C@H]1[C@H](C)CC[C@]2(CO)CC[C@]3(C)C(=CC[C@@H]4[C@@]5(C)CCCNC(C)(C)[C@@H]5CC[C@]43C)[C@H]12,primary HFF,"cell viability, CellTiter-Glo",,HCMV AD169 assay setting,,CC50,14.8 µM
Cc1[nH][n+]([Pd-2]([Cl])([Cl])[n+]2[nH]c(C)c(CSC3CCCCC3)c2C)c(C)c1CSC1CCCCC1,Jurkat,"cytotoxicity, 7-AAD flow cytometry",,24 h,,IC50,0.11 ± 0.01 µM
C=CC(=O)N1CCCC(n2c(=O)c3ncccc3n(Cc3ccc(Oc4ccccc4)cc3)c2=O)C1 (stereo not drawn),Rec1 and HCT-116,,,0.2 µM,,cellular uptake time,< 5 min
Cc1[nH][n+]([Pd-2]([Br])([Br])[n+]2[nH]c(C)c(CSCc3ccccc3)c2C)c(C)c1CSCc1ccccc1,Jurkat,"cytotoxicity, 7-AAD flow cytometry",,24 h,,IC50,0.57 ± 0.02 µM
CC(=O)O[C@@H]1C[C@H]2C(C)(C)[C@H](O)CC[C@]2(C)[C@H]2CC[C@@]3(C)C(=CC[C@H]3[C@@H](C)C[C@@H](O)[C@H](O)C(C)(C)O)[C@@]21C,fibroblasts,MTT,,concentration not given,,cytotoxicity,not toxic
COc1cc(-c2ccc(O)cc2)cc(O)c1O,3T3-L1,MTT,,"concentration not given, 72 h, added: insulin 30 nM",,viability,96.6%
O=C(Nc1cc(F)c(F)c(F)c1)c1ccc(F)c(S(=O)(=O)N2CCC(NC(=O)C3CCN(C(=O)CC45CC6CC(CC(C6)C4)C5)CC3)CC2)c1,HepAD38,cytopathic effect,human hepatoma cells,,,maximum non-toxic concentration,60 µmol/L
CC(=O)O[C@@H]1[C@@H](OC(C)=O)[C@H](Sc2sc(C(=O)c3ccc(Br)cc3)c(N)c2-c2nc3ccccc3s2)OC[C@@H]1OC(C)=O,BGM,cytotoxicity,,72 h,,maximum non-toxic concentration,90 µg/mL
O=C(Nc1cc(F)c(F)c(F)c1)c1ccc(F)c(S(=O)(=O)N2CCC(NC(=O)C3CCC4(CC3)CCN(C(=O)CC35CC6CC(CC(C6)C3)C5)CC4)CC2)c1,HepAD38,cytopathic effect,human hepatoma cells,,,maximum non-toxic concentration,15 µmol/L
CC(C)=CCc1cc2c(cc1O)OCc1c-2oc2c(CC=C(C)C)c(O)ccc12,3T3-L1,MTT,,concentration not given,,viability,94.4 ± 0.5%
